Published values collected from several papers.
A part holds a random share of what one study measured. Positions count from the first letter of the parent shown.

Series 1 — method: Sort-seq; item: YFP reporter; matrix: E. coli; setting: PhoQ-PhoP variant library; together with: 10 µM Mg2+; relative to: high Mg2+ state; direction: higher = stronger signaling
Substance: PhoQ, residues 284 288 289 292 302 303 AMDMFI
target	fold induction
PhoP, residues 12 14 15 18 19 NFFVT (Escherichia coli, UniProt P23836)	2
PhoP, residues 12 14 15 18 19 TPWTL (Escherichia coli, UniProt P23836)	2.15
PhoP, residues 12 14 15 18 19 LHHYF (Escherichia coli, UniProt P23836)	1.4
PhoP, residues 12 14 15 18 19 VGHWL (Escherichia coli, UniProt P23836)	0.759

Series 2 — method: DHFR PCA, deep sequencing; matrix: yeast; together with: (+)-ABA 0.39 µM; relative to: wild-type fitted maximum; direction: higher = stronger binding
Target: ABI1, truncated, D143A, DHFR fusion (Arabidopsis thaliana)
Setting: methotrexate growth selection, single substitutions
Starting sequence: PYL1, truncated, DHFR fusion (Arabidopsis thaliana); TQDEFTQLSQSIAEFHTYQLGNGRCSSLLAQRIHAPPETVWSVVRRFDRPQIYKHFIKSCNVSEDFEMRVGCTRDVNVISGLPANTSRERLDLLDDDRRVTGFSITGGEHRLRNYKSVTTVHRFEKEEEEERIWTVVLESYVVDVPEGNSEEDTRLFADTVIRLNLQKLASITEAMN; partner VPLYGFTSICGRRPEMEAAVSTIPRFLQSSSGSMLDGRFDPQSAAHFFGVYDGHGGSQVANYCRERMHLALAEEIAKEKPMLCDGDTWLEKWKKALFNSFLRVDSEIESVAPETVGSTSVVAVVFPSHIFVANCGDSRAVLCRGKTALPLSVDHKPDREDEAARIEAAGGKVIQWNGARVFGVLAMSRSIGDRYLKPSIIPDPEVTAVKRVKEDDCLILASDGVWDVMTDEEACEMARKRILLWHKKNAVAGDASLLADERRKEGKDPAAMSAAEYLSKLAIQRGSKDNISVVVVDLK
Substitution	relative binding score
D92H	-6.61%
H122N	8.51%
E109Q	17.3%
A30W	36.4%
R123W	-6.85%
H122E	-9.28%
R49P	5.2%
E131A	51.4%
F15T	-3.87%
Q31L	6.96%
K58P	-2.69%
W134C	57.2%
F66W	31.6%

Series 3 — method: universal PBM; molecule type: double-stranded DNA, one strand shown; matrix: in vitro; tested at: 600 nM; direction: higher = stronger binding
Target: Sal-like protein 4, full length isoform A (SALL4, Homo sapiens, UniProt Q9UJQ4, residues 1-1053)
Chain of UniProt Q9UJQ4 (whole entry, looked up): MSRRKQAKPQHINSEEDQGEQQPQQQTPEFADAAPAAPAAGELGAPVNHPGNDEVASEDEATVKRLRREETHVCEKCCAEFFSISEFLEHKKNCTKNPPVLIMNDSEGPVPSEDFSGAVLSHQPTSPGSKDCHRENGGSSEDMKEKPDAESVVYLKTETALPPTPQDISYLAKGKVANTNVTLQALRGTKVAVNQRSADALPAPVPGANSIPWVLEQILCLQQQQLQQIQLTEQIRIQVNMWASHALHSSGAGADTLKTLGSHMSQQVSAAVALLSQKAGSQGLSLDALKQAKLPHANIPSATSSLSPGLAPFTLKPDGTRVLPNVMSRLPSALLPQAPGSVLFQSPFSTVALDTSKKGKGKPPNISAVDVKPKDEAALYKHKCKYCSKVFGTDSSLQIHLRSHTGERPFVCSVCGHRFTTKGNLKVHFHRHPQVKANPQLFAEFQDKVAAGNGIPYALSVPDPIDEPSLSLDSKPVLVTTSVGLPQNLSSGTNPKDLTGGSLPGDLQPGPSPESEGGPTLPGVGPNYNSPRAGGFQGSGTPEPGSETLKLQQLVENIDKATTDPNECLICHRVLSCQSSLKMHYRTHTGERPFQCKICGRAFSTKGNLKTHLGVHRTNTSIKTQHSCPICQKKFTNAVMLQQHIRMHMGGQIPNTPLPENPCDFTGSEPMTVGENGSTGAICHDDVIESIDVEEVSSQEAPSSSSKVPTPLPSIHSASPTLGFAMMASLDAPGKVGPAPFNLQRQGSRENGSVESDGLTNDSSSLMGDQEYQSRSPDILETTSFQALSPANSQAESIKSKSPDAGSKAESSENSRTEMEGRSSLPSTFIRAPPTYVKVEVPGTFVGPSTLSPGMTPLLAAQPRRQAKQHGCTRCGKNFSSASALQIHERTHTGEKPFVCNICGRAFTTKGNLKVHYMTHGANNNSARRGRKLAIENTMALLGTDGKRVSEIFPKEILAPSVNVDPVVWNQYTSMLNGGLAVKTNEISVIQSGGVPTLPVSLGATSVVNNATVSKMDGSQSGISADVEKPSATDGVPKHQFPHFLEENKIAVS
Setting: 8-mer, flanks averaged, mean of replicates
Oligonucleotide	E-score
CCCTGTCG	-0.298
AGCAATCG	0.0138
GATAACAC	0.0975
ATCGGTAC	-0.0625
AGAGAGAC	-0.163
CTGGCGCA	-0.234
AGCTCGGC	-0.245
GTTTACCA	0.0669
CGCTCTTC	-0.0923
CATATCAC	0.19
CGCAAGCC	-0.285
TAGAAGGA	-0.04
GCGTTCAC	-0.0857
GTGAGGAA	-0.0321
CCCAGACC	-0.23
CCCACAAG	-0.227
GATTTGGC	0.0123
TGGGTACA	-0.05
AATAGGGC	-0.0283
CAGCACAG	-0.124

Series 4 — target: CCNF, cyclin fold, Cln2 fusion (human); method: yeast growth competition, sequencing; matrix: yeast; setting: strong parent motif; relative to: not given; direction: higher = stronger binding
Starting sequence: WEE1 docking peptide (human); HKTFRKLRLFDTP
Substitution	normalised enrichment score
HKTFRKLRVFDTP [L9V]	1.42
HKTIRKLRLFDTP [F4I]	3.08
HKTFRKLRLFLTP [D11L]	2.59
HKGFRKLRLFDTP [T3G]	3.19
HKTFRKLRLFETP [D11E]	2.22
NKTFRKLRLFDTP [H1N]	2.34
HKTFRKLRLNDTP [F10N]	1.14
HKTFRKLFLFDTP [R8F]	3.55
HKTNRKLRLFDTP [F4N]	5.56
HKTFRKLRLFDTD [P13D]	2.81
HKTFRKLRLFCTP [D11C]	2.55

A few entries again (series 3):
Oligonucleotide	E-score
GATTTGGC	0.0123
TGGGTACA	-0.05
CAGCACAG	-0.124
ATCGGTAC	-0.0625
CTGGCGCA	-0.234
CGCAAGCC	-0.285
GTTTACCA	0.0669
